Results collected from several papers.
Compare with care: the assays were run in different laboratories. Several values in a cell are separate wells, animals, samples, runs or records. ± marks the error that the study gave.
Sequence of UniProt P20813 (whole entry, looked up): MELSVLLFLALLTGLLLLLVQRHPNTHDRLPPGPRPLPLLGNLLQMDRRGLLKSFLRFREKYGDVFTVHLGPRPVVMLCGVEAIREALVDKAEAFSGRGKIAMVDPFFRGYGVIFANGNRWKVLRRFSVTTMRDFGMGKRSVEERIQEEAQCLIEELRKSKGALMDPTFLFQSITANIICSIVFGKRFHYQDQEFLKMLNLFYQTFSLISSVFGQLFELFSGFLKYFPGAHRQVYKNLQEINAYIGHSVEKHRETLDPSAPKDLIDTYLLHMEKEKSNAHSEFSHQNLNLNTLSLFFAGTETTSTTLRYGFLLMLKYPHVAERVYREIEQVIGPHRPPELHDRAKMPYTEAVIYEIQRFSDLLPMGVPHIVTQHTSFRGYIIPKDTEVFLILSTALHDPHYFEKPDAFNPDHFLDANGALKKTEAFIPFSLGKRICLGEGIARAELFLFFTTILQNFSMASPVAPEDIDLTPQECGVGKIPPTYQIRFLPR

Structure (SMILES) | tested on | test | test system | setting | how to read | measurement | result
CC(C)Cc1ccc(C(C)C(=O)N[C@@H](CCCCNC(=O)CCOCCOCCOCCOCCOCCOCCNC(=O)CN2CCN(CC(=O)[O-])CCN(CC(=O)[O-])CCN(CC(=O)[O-])CC2)C(=O)Nc2cccc3c(C(=O)NCC(=O)N4CC(F)(F)C[C@H]4C#N)ccnc23)cc1.[177Lu+3] (stereo partly shown) | U-87 MG tumour model |  | host not given, muscle | 48 h, tumour-bearing |  | tracer uptake | 0.32 %ID/g
CC[C@H](C)NCC(SS(=O)(=O)O)c1ccccc1 (stereo partly shown) | Schistosoma mansoni | perfusion day 62 | infected Swiss Webster mice | 100 mg/kg |  | body weight | 38.6 g and 38 g
CC(C)OCCOCc1ccc(OCC(O)CN(N=O)C(C)C)cc1 (stereo not shown) | Salmonella typhimurium | Ames test | TA98 | 50 µg/plate, without metabolic activation | reference: solvent control | revertant fold increase | 1 fold
CNC(=O)C1CCCN(C(=O)C2CC3CCC2N3C(=O)[C@@H]2C[C@@H](O)CN2C(=O)NCc2cccc(Cl)c2F)C1 (mixture of isomers) | Cytochrome P450 2B6 (CYP2B6, Homo sapiens, UniProt P20813) | preincubation with NADPH | human | 5.56 µM | reference: negative control | remaining activity | 104% and 89.7%
Cc1cc(=O)c2c(O)c3c(O[C@@H]4O[C@H](CO)[C@@H](O)[C@H](O)[C@H]4O)cc(O)cc3cc2o1 | HK-2 co-cultured with HepaRG | MTT |  | 133.33 µM, 24 h | reference: untreated control | cell viability | 70.2 ± 15.1%
N#C[C@@H]1CCCN1C(=O)CNC(=O)c1ccnc2ccc(OCCCN3CCN(C(=O)CCc4ccc5c(c4)CN4CCN(Cc6cc(CCC(=O)O)ccc6O)CC(=O)[O][Al-]([18F])([O]C(=O)C4)[O]5)CC3)cc12 (stereo partly shown) | U-87 MG tumour model |  | host not given, stomach | 2 h, tumour-bearing |  | tracer uptake | 0.76 %ID/g
O=C1C2CC3CC1CC(C(=O)N1CCN(c4ccc([N+](=O)[O-])c5ncccc45)CC1)(C3)C2 | Escherichia coli | Ames test | WP2 uvrA pKM101 | 0.02 µg/well, with S9 | reference: vehicle | revertant fold increase | 0.9
C[C@@H]1O[C@@H](O[C@@H]2[C@@H](O)[C@H](O)[C@@H](CO)O[C@H]2c2c(O)cc(O)c3c(=O)cc(-c4ccc(O)cc4)oc23)[C@H](O)[C@H](O)[C@H]1O | Caco-2 monolayer | transwell permeability |  | 100 µg/mL, apical to basolateral, HBSS, DMSO 1%, added: digoxin 5 ng/mL | reference: digoxin alone | Papp increase | 12.1%
O=C1NC2(CC2)COc2ncc(F)cc2[C@H]2COCCN2c2ccn3ncc1c3n2 | CHL cells | chromosomal aberration test |  | 10 µg/mL, 24 h, without S9 mix | reference: solvent control | relative population doubling | 65.3%
CCN(CC)CC#CCNc1ccnc2cc(Cl)ccc12 | Salmonella typhimurium | mini-Ames test | TA1535 | 500.0 µg/well, with rat liver S9 |  | revertants | 3 revertants/well and 5 revertants/well
COc1cccc(OC)c1-c1cc(C(=O)NC2(C(=O)O)C3CC4CC(C3)CC2C4)nn1-c1ccc(C(=O)NCCNC(=O)[C@H](CCCCNC(=O)[C@H](CC(C)C)NC(=O)C2OC2C(=O)O)NC(=O)CN2CCN(CC(=O)[O-])CCN(CC(=O)[O-])CCN(CC(=O)[O-])CC2)cc1C(C)C.[177Lu+3] (mixture of isomers) | HT-29 tumour model |  | host not given, bone | 24 h, tumour-bearing |  | tracer uptake | 0.26 %ID/g
CCCC[C@@H](CSS(=O)(=O)O)NC1CCCCC1 | Schistosoma mansoni | perfusion day 57 | infected Swiss Webster mice | 100 mg/kg |  | body weight | 34.3 g and 35 g and 31 g
CN1CCCNC(=O)c2cccc(c2)C(=O)NCCCN(C)CCCNc2cccc3c2C(=O)c2cccc(c2C3=O)NCCC1 | SAS | cell growth or viability, CCK-8 |  | 1 nM, 48 h |  | viability | 100%

A few entries again:
Structure (SMILES) | tested on | test | test system | setting | how to read | measurement | result
O=C1C2CC3CC1CC(C(=O)N1CCN(c4ccc([N+](=O)[O-])c5ncccc45)CC1)(C3)C2 | Escherichia coli | Ames test | WP2 uvrA pKM101 | 0.02 µg/well, with S9 | reference: vehicle | revertant fold increase | 0.9
